Results from different studies.
Lines come from different studies, so protocols differ. ± marks the error that the study gave.
PTH1R: Parathyroid hormone/parathyroid hormone-related peptide receptor (PTH1R, Homo sapiens, UniProt Q03431)
Chain of UniProt Q9Y6Y9 (whole entry, looked up): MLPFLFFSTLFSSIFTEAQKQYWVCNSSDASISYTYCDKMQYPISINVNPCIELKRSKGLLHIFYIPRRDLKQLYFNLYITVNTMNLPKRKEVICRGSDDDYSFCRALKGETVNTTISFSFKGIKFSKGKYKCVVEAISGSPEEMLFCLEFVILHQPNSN
Chain of UniProt Q03431 (whole entry, looked up): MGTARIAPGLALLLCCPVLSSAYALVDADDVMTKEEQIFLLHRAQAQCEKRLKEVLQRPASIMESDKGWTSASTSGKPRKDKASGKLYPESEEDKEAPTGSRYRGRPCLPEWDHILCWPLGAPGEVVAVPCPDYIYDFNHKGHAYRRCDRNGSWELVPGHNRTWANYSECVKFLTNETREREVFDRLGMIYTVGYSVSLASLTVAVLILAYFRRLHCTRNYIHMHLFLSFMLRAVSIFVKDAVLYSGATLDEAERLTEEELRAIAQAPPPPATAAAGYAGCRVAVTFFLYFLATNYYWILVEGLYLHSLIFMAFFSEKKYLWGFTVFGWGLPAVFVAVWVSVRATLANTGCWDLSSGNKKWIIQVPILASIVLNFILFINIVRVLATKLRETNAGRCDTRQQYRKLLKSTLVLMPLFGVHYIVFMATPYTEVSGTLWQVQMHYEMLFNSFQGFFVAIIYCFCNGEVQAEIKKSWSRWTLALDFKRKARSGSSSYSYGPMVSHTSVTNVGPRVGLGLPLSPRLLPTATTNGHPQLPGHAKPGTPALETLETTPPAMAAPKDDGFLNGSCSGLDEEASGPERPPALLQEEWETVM
Chain of UniProt O77404 (whole entry, looked up): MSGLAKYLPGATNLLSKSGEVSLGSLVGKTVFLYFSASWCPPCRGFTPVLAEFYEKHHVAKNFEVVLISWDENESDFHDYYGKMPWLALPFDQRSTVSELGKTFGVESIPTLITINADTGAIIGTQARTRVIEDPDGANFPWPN
Chain of UniProt O00206 (whole entry, looked up): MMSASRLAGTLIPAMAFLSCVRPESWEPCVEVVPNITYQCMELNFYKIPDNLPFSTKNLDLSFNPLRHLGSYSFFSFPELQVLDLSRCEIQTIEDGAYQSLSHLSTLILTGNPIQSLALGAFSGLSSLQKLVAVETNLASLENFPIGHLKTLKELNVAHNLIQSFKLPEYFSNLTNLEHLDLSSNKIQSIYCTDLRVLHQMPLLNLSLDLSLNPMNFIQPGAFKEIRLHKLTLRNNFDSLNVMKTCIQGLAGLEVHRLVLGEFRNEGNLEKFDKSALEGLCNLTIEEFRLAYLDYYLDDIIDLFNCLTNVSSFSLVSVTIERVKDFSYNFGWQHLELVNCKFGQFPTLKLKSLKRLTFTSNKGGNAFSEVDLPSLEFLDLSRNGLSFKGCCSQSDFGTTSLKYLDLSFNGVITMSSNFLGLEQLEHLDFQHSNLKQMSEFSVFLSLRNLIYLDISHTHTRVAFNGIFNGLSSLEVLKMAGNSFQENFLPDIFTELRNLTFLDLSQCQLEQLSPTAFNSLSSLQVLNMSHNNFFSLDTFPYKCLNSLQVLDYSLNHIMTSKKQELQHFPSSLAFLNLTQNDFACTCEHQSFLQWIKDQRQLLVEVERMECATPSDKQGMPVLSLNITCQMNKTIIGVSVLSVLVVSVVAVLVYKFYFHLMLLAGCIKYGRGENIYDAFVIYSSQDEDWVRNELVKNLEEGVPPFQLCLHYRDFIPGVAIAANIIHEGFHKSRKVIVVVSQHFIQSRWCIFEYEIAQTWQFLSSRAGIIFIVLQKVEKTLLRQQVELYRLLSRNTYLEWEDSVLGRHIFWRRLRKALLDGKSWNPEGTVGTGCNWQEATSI
Chain of UniProt Q16539 (whole entry, looked up): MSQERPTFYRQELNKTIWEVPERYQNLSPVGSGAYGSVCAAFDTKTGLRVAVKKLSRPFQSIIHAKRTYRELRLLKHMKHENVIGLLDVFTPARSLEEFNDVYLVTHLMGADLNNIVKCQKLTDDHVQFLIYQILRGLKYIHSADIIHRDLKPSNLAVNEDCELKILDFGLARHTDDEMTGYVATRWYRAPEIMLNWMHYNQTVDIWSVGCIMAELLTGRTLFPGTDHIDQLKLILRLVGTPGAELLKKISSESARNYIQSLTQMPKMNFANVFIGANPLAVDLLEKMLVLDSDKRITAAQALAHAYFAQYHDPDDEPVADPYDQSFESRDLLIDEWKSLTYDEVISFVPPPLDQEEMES
Chain of UniProt P09429 (whole entry, looked up): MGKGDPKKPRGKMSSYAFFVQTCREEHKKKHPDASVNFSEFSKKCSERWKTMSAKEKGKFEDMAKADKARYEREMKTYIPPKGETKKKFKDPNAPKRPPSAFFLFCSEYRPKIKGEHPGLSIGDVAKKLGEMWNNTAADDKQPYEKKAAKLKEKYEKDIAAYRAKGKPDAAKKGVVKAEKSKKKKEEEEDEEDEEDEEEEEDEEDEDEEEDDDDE
Chain of UniProt P21860 (whole entry, looked up): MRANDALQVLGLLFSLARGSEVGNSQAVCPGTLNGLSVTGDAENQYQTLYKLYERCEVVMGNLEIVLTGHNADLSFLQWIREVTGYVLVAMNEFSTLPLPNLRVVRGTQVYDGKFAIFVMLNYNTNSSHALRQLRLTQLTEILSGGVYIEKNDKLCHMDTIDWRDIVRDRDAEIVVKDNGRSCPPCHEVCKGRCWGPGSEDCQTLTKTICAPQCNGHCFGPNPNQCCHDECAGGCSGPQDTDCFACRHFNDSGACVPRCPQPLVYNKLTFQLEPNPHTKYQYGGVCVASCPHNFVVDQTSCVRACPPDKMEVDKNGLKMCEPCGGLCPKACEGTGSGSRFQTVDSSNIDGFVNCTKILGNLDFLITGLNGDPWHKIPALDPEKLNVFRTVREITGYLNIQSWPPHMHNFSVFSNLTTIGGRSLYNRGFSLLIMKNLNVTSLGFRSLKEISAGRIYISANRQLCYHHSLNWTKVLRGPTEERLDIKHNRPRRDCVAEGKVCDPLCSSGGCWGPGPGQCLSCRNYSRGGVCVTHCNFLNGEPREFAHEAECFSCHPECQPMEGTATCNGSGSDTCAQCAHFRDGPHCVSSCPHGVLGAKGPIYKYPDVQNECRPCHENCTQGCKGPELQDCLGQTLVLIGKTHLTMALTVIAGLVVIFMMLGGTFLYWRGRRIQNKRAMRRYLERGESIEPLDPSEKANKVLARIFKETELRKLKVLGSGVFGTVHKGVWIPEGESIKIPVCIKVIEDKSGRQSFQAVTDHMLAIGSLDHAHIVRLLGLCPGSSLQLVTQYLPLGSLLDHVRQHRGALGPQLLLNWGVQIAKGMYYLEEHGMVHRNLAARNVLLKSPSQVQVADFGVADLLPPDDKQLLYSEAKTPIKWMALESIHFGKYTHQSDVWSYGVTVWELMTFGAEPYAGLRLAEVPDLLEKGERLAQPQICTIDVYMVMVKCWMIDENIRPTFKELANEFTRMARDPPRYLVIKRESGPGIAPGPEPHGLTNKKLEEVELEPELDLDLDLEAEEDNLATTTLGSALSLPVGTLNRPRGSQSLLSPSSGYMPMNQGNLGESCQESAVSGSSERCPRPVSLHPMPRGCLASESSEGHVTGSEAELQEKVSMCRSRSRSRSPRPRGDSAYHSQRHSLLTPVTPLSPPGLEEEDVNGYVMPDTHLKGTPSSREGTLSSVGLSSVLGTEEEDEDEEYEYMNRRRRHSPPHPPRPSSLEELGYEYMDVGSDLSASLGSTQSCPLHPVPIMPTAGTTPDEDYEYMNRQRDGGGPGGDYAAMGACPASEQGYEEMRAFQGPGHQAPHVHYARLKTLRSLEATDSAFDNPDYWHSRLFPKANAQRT
Chain of UniProt P23919 (whole entry, looked up): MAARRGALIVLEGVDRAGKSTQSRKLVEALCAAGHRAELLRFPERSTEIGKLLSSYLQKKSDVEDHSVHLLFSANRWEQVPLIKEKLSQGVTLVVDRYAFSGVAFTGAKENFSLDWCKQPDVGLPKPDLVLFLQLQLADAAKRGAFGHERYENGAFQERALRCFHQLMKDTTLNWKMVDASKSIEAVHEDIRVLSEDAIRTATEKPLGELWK
Chain of UniProt C0HJB3 (whole entry, looked up): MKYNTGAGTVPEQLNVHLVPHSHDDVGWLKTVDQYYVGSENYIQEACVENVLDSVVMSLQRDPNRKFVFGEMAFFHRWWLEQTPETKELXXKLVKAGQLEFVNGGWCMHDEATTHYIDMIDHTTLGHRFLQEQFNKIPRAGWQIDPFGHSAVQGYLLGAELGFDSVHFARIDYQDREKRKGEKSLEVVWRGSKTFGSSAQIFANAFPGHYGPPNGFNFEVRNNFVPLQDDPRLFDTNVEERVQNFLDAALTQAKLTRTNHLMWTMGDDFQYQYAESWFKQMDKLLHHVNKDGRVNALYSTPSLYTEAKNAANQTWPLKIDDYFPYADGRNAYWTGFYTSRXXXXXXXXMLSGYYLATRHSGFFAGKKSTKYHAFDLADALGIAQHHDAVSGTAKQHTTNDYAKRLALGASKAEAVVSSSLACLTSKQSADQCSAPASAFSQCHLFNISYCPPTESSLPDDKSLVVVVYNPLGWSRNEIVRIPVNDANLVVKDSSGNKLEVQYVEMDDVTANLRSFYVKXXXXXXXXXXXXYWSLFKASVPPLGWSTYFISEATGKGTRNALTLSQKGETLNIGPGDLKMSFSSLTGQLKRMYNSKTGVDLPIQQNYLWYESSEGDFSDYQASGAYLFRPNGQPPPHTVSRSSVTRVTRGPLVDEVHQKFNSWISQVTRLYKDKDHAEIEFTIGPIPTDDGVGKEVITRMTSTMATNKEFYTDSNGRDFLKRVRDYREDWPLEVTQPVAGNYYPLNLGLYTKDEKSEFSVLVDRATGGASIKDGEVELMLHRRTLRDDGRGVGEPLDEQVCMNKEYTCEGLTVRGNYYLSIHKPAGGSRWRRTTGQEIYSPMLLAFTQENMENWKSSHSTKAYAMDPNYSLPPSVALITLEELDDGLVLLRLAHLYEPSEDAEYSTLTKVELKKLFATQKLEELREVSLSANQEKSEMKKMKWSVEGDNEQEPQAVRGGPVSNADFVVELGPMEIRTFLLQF

SMILES	target	assay	system	setting	Kd
CN(C)CCNC(=O)c1cccc2c(NCCCCc3c(N)nc(N)nc3N)c3ccccc3nc12	RNA with U–U mismatch	binding, ITC		25 °C, 2	271 ± 83 µM
Cc1cc2c(cc1C)N[C@H](CC(=O)Nc1ccc(N3CCOCC3)cc1)C(=O)N2	PRKCI (Homo sapiens, UniProt P41743)	cell-free assay			1.37 µM
N[C@@H](CO)C(=O)N[C@@H](CO)C(=O)N[C@@H](CCC(=O)O)C(=O)O	LY96 (Homo sapiens, UniProt Q9Y6Y9)	binding			> 0.1 µM
CC1=CC(=O)CC(C)(C)C1(O)C=CC(C)O (stereo not drawn)	Alpha-mannosidase (Canavalia ensiformis, UniProt C0HJB3)	binding, surface plasmon resonance		25 °C	926 µM
O=c1ccn(C2OC(COP(=O)(O)OP(=O)(O)OP(=O)(O)O)C(O)C2O)c(=O)[nH]1 (stereo not drawn)	Uncharacterized protein (Trypanosoma brucei brucei, UniProt Q386Q8)	binding, surface plasmon resonance	Trypanosoma brucei		83.1 ± 0.5 µM
C[n+]1ccc(/C=N/NC(=O)c2cccc(C(=O)N/N=C/c3cc[n+](C)c4ccccc34)n2)c2ccccc21	MYC promoter G-quadruplex DNA	fluorescence titration		pH 7.2, 100 mM KCl, together with: labelled DNA 2 nM	0.0075 ± 0.001 µM
CC(=O)N[C@H]1[C@@H](OC(=O)NCCCOCCOCCOCCCNC(=O)O[C@H]2O[C@H](CNC(=O)OCCOCCOCCOCCOCCOCCOC(=O)NC[C@H]3O[C@H](OC(=O)NCCCOCCOCCOCCCNC(=O)O[C@H]4O[C@H](CO)[C@@H](O)[C@H](O)[C@H]4NC(C)=O)[C@H](NC(C)=O)[C@@H](O)[C@@H]3O)[C@@H](O)[C@H](O)[C@H]2NC(C)=O)O[C@H](CO)[C@@H](O)[C@@H]1O	wheat germ agglutinin	competitive ITC		together with: GlcNAc 10 mM competitor	0.124 µM
COC(=O)c1c(O)cc(O)c(Cl)c1CCc1cccc(Cc2ccccc2)c1	Endoplasmin (HSP90B1, Canis lupus familiaris, UniProt P41148)	ligand displacement, FP			10.4 µM
CC[C@H](C)[C@H](NC(=O)[C@H](CCC(N)=O)NC(=O)[C@H](CS)NC(=O)[C@H](CC(C)C)NC(=O)[C@H](CCC(=O)O)NC(=O)[C@H](CCC(=O)O)NC(=O)[C@H](CC(=O)O)NC(=O)[C@@H](NC(=O)[C@@H](NC(=O)[C@@H](NC(=O)[C@H](CC(=O)O)NC(=O)[C@H](Cc1ccccc1)NC(=O)[C@@H](NC(=O)[C@H](C)NC(=O)[C@H](CC(=O)O)NC(=O)[C@H](CC(=O)O)NC(=O)[C@H](CCCNC(=N)N)NC(=O)[C@H](CCCNC(=N)N)NC(=O)CCNC(=O)CCNC(=O)CCCC[C@@H]1SC[C@@H]2NC(=O)N[C@@H]21)C(C)C)[C@@H](C)CC)[C@@H](C)CC)[C@@H](C)O)C(=O)N[C@@H](CCC(N)=O)C(=O)N[C@@H](CCC(=O)O)C(=O)N[C@@H](Cc1c[nH]c2ccccc12)C(N)=O	Microtubule-associated protein 1 light chain 3 beta (Homo sapiens, UniProt Q9GZQ8)	binding, BLI		pH 7.4	0.33 µM
CC[C@H](C)[C@H](NC(=O)[C@H](CCC(=O)O)NC(=O)[C@H](CO)NC(=O)[C@@H](NC(=O)[C@@H](N)CO)C(C)C)C(=O)N[C@@H](CCC(N)=O)C(=O)N[C@@H](CC(C)C)C(=O)N[C@@H](CCSC)C(=O)N[C@@H](Cc1c[nH]cn1)C(=O)N[C@@H](CC(N)=O)C(=O)N[C@@H](CC(C)C)C(=O)NCC(=O)N[C@@H](CCCCN)C(=O)N[C@@H](Cc1c[nH]cn1)C(=O)N[C@@H](CC(C)C)C(=O)N[C@@H](CC(N)=O)C(=O)N[C@@H](CO)C(=O)N[C@@H](CCSC)C(=O)N[C@@H](CCC(=O)O)C(=O)N[C@@H](CCCNC(=N)N)C(=O)N[C@H](C(=O)N[C@@H](CCC(=O)O)C(=O)N[C@@H](Cc1c[nH]c2ccccc12)C(=O)N[C@@H](CC(C)C)C(=O)N[C@@H](CCCNC(=N)N)C(=O)N[C@@H](CCCCN)C(=O)N[C@@H](CCCCN)C(=O)N[C@@H](CC(C)C)C(=O)N[C@@H](CCC(N)=O)C(=O)N[C@@H](CC(=O)O)C(=O)N[C@H](C(=O)N[C@@H](Cc1c[nH]cn1)C(=O)N[C@@H](CC(N)=O)C(=O)N[C@@H](Cc1ccccc1)C(=O)N[C@@H](CCCCNC(=O)c1ccc2c(c1)C1(OC2=O)c2ccc(N(C)C)cc2Oc2cc(N(C)C)ccc21)C(N)=O)C(C)C)C(C)C	PTH1R	binding, NanoBRET kinetic binding	cells	pH 5.5, together with: TMR-labelled peptide tracer	0.039 ± 0.006 µM
COCCOCCOCCOC(=O)c1cnc2cc(-c3c(C)noc3C)c(OC)cc2c1N[C@H](C)c1ccccn1	Bromodomain factor 3 (Trypanosoma brucei brucei, UniProt Q383S2)	ITC		15 °C	100 ± 70 µM
CCCCCCCCCCCCCCCC(=O)OC[C@H](CSC[C@H](NC(=O)COCC(=O)NCCCOCCOCCOCCCNC(=O)CN(CCN(CCN(CC(=O)O)CC(=O)O)CC(=O)O)CC(=O)O)C(=O)NCC(=O)N[C@H](CO)C(=O)NCCCOCCOCCOCCCNC(=O)COCC(N)=O)OC(=O)CCCCCCCCCCCCCCC	TLR2 (Homo sapiens, UniProt O60603)	binding, europium TRF saturation binding in cells			< 0.1 µM
CC(C)C[C@H](NC(=O)[C@H](CCCNC(=N)N)NC(=O)CNC(=O)CNC(=O)[C@H](CO)NC(=O)[C@H](Cc1c[nH]cn1)NC(=O)[C@H](Cc1c[nH]c2ccccc12)NC(=O)[C@H](CO)NC(=O)CNC(=O)[C@H](Cc1c[nH]c2ccccc12)NC(=O)CNC(=O)[C@H](C)NC(=O)[C@@H](NC(=O)[C@H](CCC(N)=O)NC(=O)[C@H](CS)NC(=O)[C@H](CCCNC(=N)N)NC(=O)[C@@H](NC(=O)CN)[C@@H](C)O)C(C)C)C(=O)N[C@@H](CO)C(=O)N[C@@H](CCCNC(=N)N)C(=O)N[C@@H](Cc1ccccc1)C(=O)N1CCC[C@H]1C(=O)N[C@@H](CCCNC(=N)N)C(=O)N[C@@H](Cc1ccccc1)C(=O)N[C@H](C(=O)N[C@@H](CC(N)=O)C(=O)N[C@H](C(=O)O)C(C)C)C(C)C	Toll-like receptor 4/MD-2 (TLR4/LY96, Homo sapiens, UniProt O00206+Q9Y6Y9)	binding, ELISA			0.229 µM
O=c1[nH]c(CCl)nc2scc(-c3cccc(F)c3)c12	Tryparedoxin (Trypanosoma brucei brucei, UniProt O77404)	inhibitor-induced homodimer dissociation, dilution ITC			3.7 ± 1.5 µM
CSCC[C@H](NC(=O)[C@H](CC(C)C)NC(=O)[C@H](CCC(N)=O)NC(=O)[C@H](Cc1c[nH]cn1)NC(=O)[C@H](CCC(=O)O)NC(=O)[C@H](CO)NC(=O)[C@@H](NC(=O)[C@@H](N)CO)C(C)C)C(=O)N[C@@H](Cc1c[nH]cn1)C(=O)N[C@@H](CC(N)=O)C(=O)N[C@@H](CC(C)C)C(=O)NCC(=O)N[C@@H](CCCCN)C(=O)N[C@@H](Cc1c[nH]cn1)C(=O)N[C@@H](CC(C)C)C(=O)N[C@@H](CC(N)=O)C(=O)N[C@@H](CO)C(=O)N[C@@H](CCSC)C(=O)N[C@@H](CCC(=O)O)C(=O)N[C@@H](CCCNC(=N)N)C(=O)N[C@H](C(=O)N[C@@H](CCC(=O)O)C(=O)N[C@@H](Cc1c[nH]c2ccccc12)C(=O)N[C@@H](CC(C)C)C(=O)N[C@@H](CCCNC(=N)N)C(=O)N[C@@H](CCCCN)C(=O)N[C@@H](CCCCN)C(=O)N[C@@H](CC(C)C)C(=O)N[C@@H](CCC(N)=O)C(=O)N[C@@H](CC(=O)O)C(=O)N[C@H](C(=O)N[C@@H](Cc1c[nH]cn1)C(=O)N[C@@H](CC(N)=O)C(=O)N[C@@H](Cc1ccccc1)C(=O)N[C@@H](CCCCNC(=O)c1ccc2c(c1)C1(OC2=O)c2ccc(N(C)C)cc2Oc2cc(N(C)C)ccc21)C(N)=O)C(C)C)C(C)C	PTH1R	binding, NanoBRET kinetic binding	cells	pH 5.5, together with: TMR-labelled peptide tracer	0.2 ± 0.11 µM
C[C@@]1(CO)CC[C@]2(CO)CC[C@]3(C)C(=CCC4[C@@](C)(CCC(=O)O)C([C@@](C)(O)CO)CC[C@]43C)[C@@H]2C1 (stereo partly drawn)	HMGB1 (Homo sapiens, UniProt P09429)	binding, biolayer interferometry		25 °C, 1 % DMSO	4900 µM
CC(C)C[C@H]1NC(=O)[C@H](CCCCN=[N+]=[N-])NC(=O)[C@@H]([C@H](C)O)NC(=O)[C@@H](CC(C)C)NC(=O)[C@@H](CC(C)C)NC(=O)[C@@H](CCCNC(=N)N)NC(=O)[C@@H](C)NC1=O	ERBB3 (Homo sapiens, UniProt P21860)	binding, SPR			50 µM
CN(C)c1ccc2c(-c3ccc(C(=O)NCCCC[C@@H](NC(=O)[C@@H](CCCNC(=N)N)NC(=O)[C@@H](CCCNC(=N)N)NC(=O)[C@@H](CCCNC(=N)N)NC(=O)[C@@H](CCCNC(=N)N)NC(=O)[C@@H](CCCNC(=N)N)NC(=O)[C@@H](CCCNC(=N)N)NC(=O)CCCCCNC(=O)[C@@H](CCCNC(=N)N)NC(=O)CCCCCNC(=O)c4ccc(-c5ccnc(N)n5)s4)C(N)=O)cc3C(=O)[O-])c3ccc(=[N+](C)C)cc-3oc2c1	PRKACA (Homo sapiens, UniProt P17612)	binding, FP			< 0.0003 µM
Oc1cc(-c2ccccc2Cl)[nH]n1	MAPK14 (Homo sapiens, UniProt Q16539)	binding, SPR			1590 µM
O=P(O)(O)O[C@@H]1[C@@H](O)[C@H](O)[C@H](O)[C@H](O)[C@H]1OP(=O)(O)O	Inositol 1,4,5-trisphosphate-gated calcium channel ITPR1, N-terminal region (Itpr1, Rattus norvegicus, UniProt P29994, del318-332)	[3H]IP3 competition binding		N-terminal fragment	0.641 µM
O=C(O)COc1ccc(-c2ccccc2)cc1Br	Nuclear factor erythroid 2-related factor 2, Neh1 domain (NFE2L2, Homo sapiens, UniProt Q16236)	binding			1500 µM
Cc1cn([C@@H]2C[C@@H](O)[C@H](COP(=O)(O)O)O2)c(=O)[nH]c1=O	Thymidylate kinase (DTYMK, Homo sapiens, UniProt P23919)	fluorescence competition		together with: MABA-dTDP	45 µM
Cc1cccc2c1O[C@@H](c1nc(C(=O)O)cs1)CN2Cc1ccccc1	Induced myeloid leukemia cell differentiation protein Mcl-1 homolog (Mus musculus, UniProt P97287)	binding, NMR			70 µM
CC[C@H](C)[C@H](NC(=O)[C@H](C)NC(=O)[C@H](CCCNC(=N)N)NC(=O)[C@H](CC(C)C)NC(=O)[C@H](CCC(=O)O)NC(=O)c1ccc2c(c1)C(=O)OC21c2ccc(O)cc2Oc2cc(O)ccc21)C(=O)N[C@H](C(=O)N[C@@H](CCCCN)C(=O)N[C@@H](CCCCN)C(=O)N[C@H](C(=O)N[C@@H](Cc1c[nH]c2ccccc12)C(=O)N[C@@H](CCCCN)C(=O)N[C@@H](CCCNC(=N)N)C(=O)N[C@H](C(=O)N[C@@H](CO)C(=O)N[C@@H](CCSC)C(=O)N[C@@H](CCCCN)C(=O)N[C@@H](CC(C)C)C(=O)N[C@@H](CC(C)C)C(=O)N[C@@H](CC(=O)O)C(=O)N[C@@H](CCC(N)=O)C(=O)N[C@H](C(=O)N[C@H](C(=O)O)C(C)C)C(C)C)[C@@H](C)O)[C@@H](C)CC)[C@@H](C)CC	Calmodulin-1 (Calm1, Rattus norvegicus, UniProt P0DP29)	binding, fluorescence anisotropy		pH 7.4, 22 °C, together with: free Ca2+ 146 nM	4.06 µM

Excerpt of the above:
SMILES	target	assay	system	setting	Kd
C[C@@]1(CO)CC[C@]2(CO)CC[C@]3(C)C(=CCC4[C@@](C)(CCC(=O)O)C([C@@](C)(O)CO)CC[C@]43C)[C@@H]2C1 (stereo partly drawn)	HMGB1 (Homo sapiens, UniProt P09429)	binding, biolayer interferometry		25 °C, 1 % DMSO	4900 µM
CC(C)C[C@H]1NC(=O)[C@H](CCCCN=[N+]=[N-])NC(=O)[C@@H]([C@H](C)O)NC(=O)[C@@H](CC(C)C)NC(=O)[C@@H](CC(C)C)NC(=O)[C@@H](CCCNC(=N)N)NC(=O)[C@@H](C)NC1=O	ERBB3 (Homo sapiens, UniProt P21860)	binding, SPR			50 µM
CN(C)c1ccc2c(-c3ccc(C(=O)NCCCC[C@@H](NC(=O)[C@@H](CCCNC(=N)N)NC(=O)[C@@H](CCCNC(=N)N)NC(=O)[C@@H](CCCNC(=N)N)NC(=O)[C@@H](CCCNC(=N)N)NC(=O)[C@@H](CCCNC(=N)N)NC(=O)[C@@H](CCCNC(=N)N)NC(=O)CCCCCNC(=O)[C@@H](CCCNC(=N)N)NC(=O)CCCCCNC(=O)c4ccc(-c5ccnc(N)n5)s4)C(N)=O)cc3C(=O)[O-])c3ccc(=[N+](C)C)cc-3oc2c1	PRKACA (Homo sapiens, UniProt P17612)	binding, FP			< 0.0003 µM
Oc1cc(-c2ccccc2Cl)[nH]n1	MAPK14 (Homo sapiens, UniProt Q16539)	binding, SPR			1590 µM
